Experimental data of several laboratories.
Lines come from different studies, so protocols differ. Several values in a cell are separate wells, animals, samples, runs or records. ± gives the spread as reported.

C[C@]12CC[C@@H]3c4ccc(O)cc4CC[C@H]3[C@@H]1C[C@@H](O)[C@@H]2O  median serum concentration (GC-MS; breast cancer women on NSAI, serum; vaginal, 0.03 mg, 0.5 h, day 0): 0 ng/mL
CC1=C2C[C@H]3[C@@H](CC[C@@H]4C[C@H](NS(C)(=O)=O)CC[C@@]43C)[C@@H]2CC[C@@]2(C1)O[C@@H]1C[C@H](C)CN[C@H]1[C@H]2C  AUC(0-24) (patients, plasma; oral, 130 mg single, day -7, cycle 1): 823 ng·h/mL
CC(C)NC(=O)COc1cccc(-c2nc(Nc3ccc4[nH]ncc4c3)c3ccccc3n2)c1  AUC(0-inf) (male C57BL/6 mouse, brain; oral, 100 mg/kg): 2050 ng·h/mL
CC(=O)Oc1ccccc1C(=O)Nc1ncc([N+](=O)[O-])s1  body weight loss (nude mouse, SK-ST breast xenograft; oral, 200 mg/kg twice daily, 12 days, reversible after stopping): 7 to 10%
C#C[C@]1(O)CC[C@H]2[C@@H]3CCc4cc(O)ccc4[C@H]3CC[C@@]21C  thermodynamic solubility (shake-flask; Captex 355; 37 °C): 44 ± 3.13 mg/g
CS(=O)(=O)OC[C@H](O)[C@@H]1CO1  concentration in red blood cells (Wistar rat, female, red blood cells; intraperitoneal, 500 mg/kg treosulfan, 4 h): 3.7 µM and 3.4 µM
O=C(O)CNC(=O)c1cccc(O)c1  total plasma concentration ratio (human hemodialysis patients, plasma; pre-treatment; baseline: hemodialysis over normal subjects): 34
Cc1cc(Nc2cc3ncccc3c(N[C@@H]3C[C@H]4CC[C@@H](C3)N4CCC#N)n2)n[nH]1  Cmax (pregnant rat, maternal plasma; oral, 1000 mg/kg/day, gestation day 17): 161 ng/mL
CC[C@@H]1C(=O)N(C)c2cnc(Nc3ccc(C(=O)N[C@H]4CC[C@H](N5CCN(CC6CC6)CC5)CC4)cc3OC)nc2N1C(C)C  Cmax geometric mean (human, plasma; intravenous infusion, 250 mg over 2 h, first infusion): 540 ng/mL
CSc1cc(C)nc(SC)c1NC(=O)CN1CCN(CCSc2nc3ccccc3[nH]2)CC1  concentration (mouse Crl:CD1 (ICR) female, cerebrum; intranasal repeated, 32.4 µg in 0.01 N HCl, 60 min): 0.8 ng/g
CCCCCCCCCCCCCCCCCCOP(=O)([O-])OC1CC[N+](C)(C)CC1  AUC(0-inf) (rhesus monkey, male, cerebrospinal fluid; oral, 7 mg/kg, single dose, mean of 3): 2450 ng·h/mL
N[C@@H](CC(=O)N1CCn2c(nnc2C(F)(F)F)C1)Cc1cc(F)c(F)cc1F  AUC(0-2 h) (healthy Korean subjects, plasma; oral, 100 mg single dose, ABCB1 C3435T CT): 465 ± 181 ng·h/mL
CCOC(=O)C1=C(C)NC(C)=C(C(=O)OC)C1c1cccc(Cl)c1Cl (stereo not shown)  thermodynamic solubility (shake-flask; PEG400; 37 °C): 43.9 ± 6.25 mg/g
Oc1ccc(C(c2ccc(O)cc2)(C(F)(F)F)C(F)(F)F)cc1  alpha half-life (measured: free compound; Hsd:Sprague Dawley rat male, plasma; oral gavage, 110 mg/kg single dose): 0.918 h
O=C(c1ccc(OCCN2CCCCC2)cc1)c1c(-c2ccc(O)cc2)sc2cc(O)ccc12  AUC(0-96 h) (healthy humans, plasma; oral, 60 mg, added: water): 0.0149 µM·h
CC1(C)Oc2cc3oc(=O)ccc3cc2C[C@@H]1O  organ weight (CD-1 mouse, male, liver; oral gavage, 80 mg/kg daily, 4 weeks): 1.62 ± 0.14 g
O=C(O)c1cc(-c2ccc(F)cc2F)ccc1O  thermodynamic solubility (shake-flask; Captex 355; 37 °C): 16.5 ± 1.73 mg/g
FC(F)(F)Oc1ccc(Oc2ccnc(N3CCC(NC(=S)Nc4cccnc4)CC3)c2Cl)c(Cl)c1  blood concentration (C57BL/6 mice, whole blood; i.p. or oral, 30 mg/kg, 4 h): 4 to 9 µM
des-acyl ghrelin (human)  tissue/serum ratio (wild-type mice, pons and medulla; intravenous, dose not given, 10 min, vascular space corrected): 14.8 µL/g
CC[C@H](C)[C@H](NC(=O)[C@H](Cc1ccccc1)NC(=O)[C@H](CC(=O)O)NC(=O)[C@H](CCCNC(=N)N)NC(=O)[C@H](C)NC(=O)[C@H](C)NC(=O)[C@H](CC(C)C)NC(=O)[C@H](CC(N)=O)NC(=O)[C@H](CC(=O)O)NC(=O)[C@H](CC(C)C)NC(=O)[C@@H](NC(=O)[C@@H](NC(=O)[C@H](CC(N)=O)NC(=O)[C@H](CCSC)NC(=O)[C@H](CCC(=O)O)NC(=O)[C@H](CC(=O)O)NC(=O)[C@H](CO)NC(=O)[C@H](Cc1ccccc1)NC(=O)[C@H](CO)NC(=O)CNC(=O)[C@H](CC(=O)O)NC(=O)CNC(=O)[C@@H](N)Cc1c[nH]cn1)[C@@H](C)O)[C@@H](C)CC)C(=O)N[C@@H](CC(N)=O)C(=O)N[C@@H](Cc1c[nH]c2ccccc12)C(=O)N[C@@H](CC(C)C)C(=O)N[C@H](C(=O)N[C@@H](CCC(N)=O)C(=O)N[C@H](C(=O)N[C@@H](CCCCN)C(=O)N[C@H](C(=O)N[C@H](C(=O)N[C@@H](CC(=O)O)C(=O)O)[C@@H](C)O)[C@@H](C)CC)[C@@H](C)O)[C@@H](C)CC  relative bioavailability reduction (human; subcutaneous thigh or arm, dose not given; baseline: abdominal injection): 7%
O=C(CCCN1CCC(O)(c2ccc(Cl)cc2)CC1)c1ccc(F)cc1  QTc change (male Hartley guinea pig, anaesthetized; intravenous infusion, 0.1 mg/kg, 10 min infusion; baseline: baseline): 4.3 ± 1.2%
CCCC[C@H](NC(C)=O)C(=O)N[C@H]1CCC(=O)NC[C@@H](C(=O)N[C@@H](Cc2c[nH]c3ccccc23)C(N)=O)NC(=O)[C@H](CCCNC(=N)N)NC(=O)[C@@H](Cc2ccccc2)NC(=O)[C@H](Cc2c[nH]cn2)NC1=O  Vd/F (healthy human, both sexes, plasma; subcutaneous, 1.0 mg once daily, day 1, median): 106 L
C[C@@H]1[C@H](c2c(F)ccc(F)c2F)C[C@H](NC(=O)c2cnc3c(c2)C[C@@]2(C3)C(=O)Nc3ncccc32)C(=O)N1CC(F)(F)F  circulating parent share of plasma radioactivity (LC-MS/MS; human, male, plasma; oral, 50 mg, single dose, 14C-labelled, AUC based): ~75%
S=C(NCCc1nc(-c2ccccc2)cs1)N1CCCCC1  brain concentration (mice, brain; intraperitoneal, 5 mg/kg, 1 h): 0.187 ± 0.089 µM
Cc1nc2cccc(OCC(C)(C)C(=O)NC(C)C)c2c(N)c1C(=O)O  Cmax (Sprague-Dawley rat (both sexes), plasma; dietary, 30 mg/kg/day, day 7): 12.9 ng/mL
Cn1cc(-c2cn3nccc3c(-c3cnn([C@]4(CC#N)C[C@@H](C#N)C4)c3)n2)cn1  dose-normalized AUC(0-tau) (healthy human, plasma; 200 mg twice daily, day 1, multiple dose, fed, geometric mean): 8.2 ng·h/mL/mg
COCCN1C(=O)c2ccccc2NC12C(=O)N(C)c1ccc(Br)cc12 (stereo not shown)  logD (shake flask; aqueous buffer; pH 7.4): 2.4
C/C=C/C=C/C=C\CC/C=C/C(=O)NCC(C)(C)O  recovery (rat, small intestine site 4 contents; oral, dose not given, 2 h, no β-glucuronidase treatment; baseline: ingested amount): 0.02%
O=C1N=C(N2CCOCC2)CN1c1ccc(Cl)cc1  apparent volume of distribution (Vz/F) (beagle dog, female; oral, 30 mg/kg, tablets, fed): 1.07 L/kg
CCCSc1ccc2nc(NC(=O)OC)[nH]c2c1  thermodynamic solubility (shake-flask; polysorbate 80; 37 °C): 2.09 ± 0.12 mg/g
Cc1c(Cl)c(C)[n+]([O-])c(Cl)c1-c1noc(-c2cc(O)c(O)c([N+](=O)[O-])c2)n1  total radioactivity recovered (human, male, urine, faeces, expired air; oral, 100 mg, 144 h; baseline: dose): > 90%
Oc1ccc(/C=C/c2cc(O)cc(O)c2)cc1  clearance (male Sprague-Dawley rat, plasma; intravenous, 10 mg/kg): 106 mL/min/kg
CCOc1nc2cccc(C(=O)O)c2n1Cc1ccc(-c2ccccc2-c2nnn[nH]2)cc1  thermodynamic solubility (shake-flask; polysorbate 80; 37 °C): 5.04 ± 0.94 mg/g
NC(=O)c1cnc2[nH]ccc2c1N[C@@H]1[C@@H]2CC3C[C@H]1C[C@@](O)(C3)C2  AUC(0-inf) ratio (healthy men; oral, 20 to 200 mg; baseline: Japanese over Caucasian): 1.4 fold
CC(C)CCCCC(=O)N[C@@H](CCN)C(=O)N[C@H](C(=O)N[C@@H](CCN)C(=O)N[C@H]1CCNC(=O)[C@H]([C@@H](C)O)NC(=O)[C@H](CCN)NC(=O)[C@H](CCN)NC(=O)[C@H](CC(C)C)NC(=O)[C@@H](Cc2ccccc2)NC(=O)[C@H](CCN)NC1=O)[C@@H](C)O  mid-interval concentration (UPLC-MS/MS; intensive care patients Non-AKI, plasma; iv, dose not given, 6 h post-dose, steady state, polymyxin B dosing): 500 ± 200 ng/mL
CC(C)(CC(=O)N1CCCC1)NCC(=O)N1C[C@@H](F)C[C@H]1C#N  AUC(0-inf) at steady state (Chinese type 2 diabetes patients, plasma; oral, 50 mg once daily, multiple doses): 782 ng·h/mL
COc1cc(-c2oc3cc(O)cc(O)c3c(=O)c2O)ccc1O  Papp A→B (mass spectrometry; Caco-2; 40 µM, 6 h): 9.32 ×10⁻⁶ cm/s
CCCn1c(=O)n(C2CC2)c(=O)c2[nH]c(-c3ccc(N(CC)C(=O)c4cccnc4)nc3)nc21  body weight (KKA diabetic mice; oral, 20 mg/kg four times at 12 h intervals, 2 day): no effect
Cc1cc(-c2cc(OC(=O)c3ccccc3)ccc2Cl)cc2nnc(Nc3ccc(OCCN4CCCC4)cc3)nc12  tissue concentration (Dutch Belted rabbit, cornea; topical ocular, 40 µL drop of 0.6%, 2 h): 38 nM
CN1CC[C@@H](NC(=O)Nc2ccc(C#N)cc2)C[C@@H]1c1nc2ccccc2[nH]1  average plasma concentration (Japanese patients, plasma; oral, 100 mg once daily, cycle 1 day 21, steady state, geometric mean): 646 ng/mL
CC[C@H](C)[C@@H]1NC(=O)[C@H](Cc2ccc(O)cc2)NC(=O)[C@@H](N)CSSC[C@@H](C(=O)N2CCC[C@H]2C(=O)N[C@@H](CC(C)C)C(=O)NCC(N)=O)NC(=O)[C@H](CC(N)=O)NC(=O)[C@H](CCC(N)=O)NC1=O  Cmax (microdialysis, radioimmunoassay; knock-out male mice lacking compound, hippocampus extracellular fluid; intranasal, 12 µg): 3.27 ± 1.19 pg/sample
CS(=O)(=O)Nc1ccc(C(=O)O[C@@H](Cc2c(Cl)c[n+]([O-])cc2Cl)c2ccc(OC(F)F)c(OCC3CC3)c2)cc1OCC1CC1  tmax (human, plasma; inhaled, 1600 µg once daily, day 1, single-dose dry powder inhaler): 2 h
Cn1cc(C2=C(c3coc4ccc(F)cc34)C(=O)NC2=O)c2cc3c(cc21)OCO3  body weight (nude mouse SK-OV-3 xenograft; i.p., 40 mg/kg every other day, 21 days, added: LiCl 340 mg/kg; baseline: vehicle): no effect

Repeated from above:
CC[C@@H]1C(=O)N(C)c2cnc(Nc3ccc(C(=O)N[C@H]4CC[C@H](N5CCN(CC6CC6)CC5)CC4)cc3OC)nc2N1C(C)C  Cmax geometric mean (human, plasma; intravenous infusion, 250 mg over 2 h, first infusion): 540 ng/mL
CSc1cc(C)nc(SC)c1NC(=O)CN1CCN(CCSc2nc3ccccc3[nH]2)CC1  concentration (mouse Crl:CD1 (ICR) female, cerebrum; intranasal repeated, 32.4 µg in 0.01 N HCl, 60 min): 0.8 ng/g
C[C@@H]1[C@H](c2c(F)ccc(F)c2F)C[C@H](NC(=O)c2cnc3c(c2)C[C@@]2(C3)C(=O)Nc3ncccc32)C(=O)N1CC(F)(F)F  circulating parent share of plasma radioactivity (LC-MS/MS; human, male, plasma; oral, 50 mg, single dose, 14C-labelled, AUC based): ~75%
O=C(CCCN1CCC(O)(c2ccc(Cl)cc2)CC1)c1ccc(F)cc1  QTc change (male Hartley guinea pig, anaesthetized; intravenous infusion, 0.1 mg/kg, 10 min infusion; baseline: baseline): 4.3 ± 1.2%
Cc1cc(-c2cc(OC(=O)c3ccccc3)ccc2Cl)cc2nnc(Nc3ccc(OCCN4CCCC4)cc3)nc12  tissue concentration (Dutch Belted rabbit, cornea; topical ocular, 40 µL drop of 0.6%, 2 h): 38 nM
CCCCCCCCCCCCCCCCCCOP(=O)([O-])OC1CC[N+](C)(C)CC1  AUC(0-inf) (rhesus monkey, male, cerebrospinal fluid; oral, 7 mg/kg, single dose, mean of 3): 2450 ng·h/mL
